Measured values gathered from unrelated publications.
Every numbered part comes from another study and shows a few of its results, in no order.

Series 1
Target: Max dimerization protein 1, bHLH-zipper, MAX partner unstated (MXD1, Homo sapiens, UniProt Q05195, residues 56-136)
Technique: protein-binding microarray
Molecule type: double-stranded DNA, one strand shown
Matrix: in vitro
Concentration: not given
Notes: k-mer, scored over probes, only values ≥0.25
Direction: higher = stronger binding
Construct (chain): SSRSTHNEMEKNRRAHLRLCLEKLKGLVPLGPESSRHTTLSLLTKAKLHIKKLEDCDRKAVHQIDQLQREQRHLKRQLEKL
| Sequence | E-score |
| --- | --- |
| ACATGGTA | 0.326 |
| CACCCACG | 0.406 |
| TCGCCACA | 0.259 |
| AAAACACA | 0.26 |
| CGCATGCG | 0.374 |

Series 2
Target: Histone acetyltransferase KAT6A, winged helix 1, GST fusion (KAT6A, Homo sapiens, UniProt Q92794, residues 1-85)
Technique: protein binding microarray
Molecule type: double-stranded DNA, one strand shown
Matrix: in vitro
Concentration: not given
Notes: 8-mer, flanks averaged, mean of 2 arrays, mostly near background
Baseline: not given
Direction: higher = stronger binding
Target sequence (chain): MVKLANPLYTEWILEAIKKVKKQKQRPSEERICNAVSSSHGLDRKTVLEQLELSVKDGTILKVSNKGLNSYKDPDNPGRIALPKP
| Sequence | E-score |
| --- | --- |
| GACCCTGA | -0.104 |
| AGGTTGTG | -0.255 |
| AGTACGAG | -0.0151 |
| GGGAAATA | -0.107 |

Series 3
Target: Probable WRKY transcription factor 33, C-terminal DNA-binding domain (WRKY33, Arabidopsis thaliana, UniProt Q8S8P5, residues 346-449)
Technique: DNA-protein interaction ELISA
Molecule type: double-stranded DNA, one strand shown
Matrix: in vitro, bacterial lysate
Concentration: not given
Notes: whole dsDNA probe, crude lysate protein
Baseline: highest signal in screen
Direction: higher = stronger binding
Residues (chain): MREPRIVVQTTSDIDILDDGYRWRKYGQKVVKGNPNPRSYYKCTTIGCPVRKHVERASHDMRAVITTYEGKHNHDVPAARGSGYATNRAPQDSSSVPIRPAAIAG
| Sequence | relative absorbance |
| --- | --- |
| AAAAAAAGGGTCCGGTGCATACATGTAAAA | 63.9 % of maximum |
| AAAAAATTGTGCCTCTGCCCTCGCCTAAAA | 32.7 % of maximum |
| AAAAAAGGTCTGGACGATCACCGGGAAAAA | 39 % of maximum |
| AAAAAAGTAGGTGCTGATGCTGGCCGAAAA | 29.2 % of maximum |
| AAAAAAACGCTATATATTGGTGCTAGAAAA | 47.8 % of maximum |

Other studies, line by line
| Molecule | target | assay | system | setting | how to read | endpoint | value |
| --- | --- | --- | --- | --- | --- | --- | --- |
| PhoQ, residues 284 288 289 292 302 303 TLASMF | PhoP, residues 12 14 15 18 19 TPLRH (Escherichia coli, UniProt P23836) | Sort-seq, measured: YFP reporter | E. coli | PhoQ-PhoP variant library, together with: 10 µM Mg2+ | baseline: high Mg2+ state, higher = stronger signaling | fold induction | 1.11 |

A few entries again (series 3):
| Sequence | relative absorbance |
| --- | --- |
| AAAAAAGTAGGTGCTGATGCTGGCCGAAAA | 29.2 % of maximum |
| AAAAAAACGCTATATATTGGTGCTAGAAAA | 47.8 % of maximum |
